Experimental data pooled from the literature.
Each line is one published result; not all experiments were run side by side. ± marks the error that the study gave.

SMILES | target or system | test | test system | setting | scale | measurement | result
CCOC(=O)C1=C(CN2CCC(C(=O)Nc3ccc(B(O)O)cc3)C2)NC(c2nccs2)=NC1c1ccc(F)cc1Br (stereo not drawn) | hepatitis B virus |  | HepDES19 |  | baseline: CC50 over EC50 | selectivity index | 54
CC(=O)N1CCC(C(=O)N2CCN3C(=O)c4cc(-c5ccccc5)ccc4NC(=O)C3C2)CC1 (stereo not drawn) | Salmonella typhimurium |  | TA100 | 1581 µg/plate, without S9 |  | revertants per plate | 102
Cc1ccc(Nc2ccnc(N3CCC(C(=O)NCCCc4ccccc4)CC3)n2)cc1 | Vero-E6 | CellTiter-Glo ATP |  | concentration not given, 72 h, second round 5-point | baseline: DMSO 0%, hyamine -100%, more negative, more toxic | cytotoxicity efficacy | -30.4%
OC(CCN1CC=C(c2ccc(F)cc2)CC1)c1ccc(F)c2ccccc12 (stereo not drawn) | Salmonella typhimurium | SOS/umu test | TA1535/pSK1002 | 0.002 mg/mL, 4 h, without S9, full range |  | survival | 106%
[Cl-].[Cl-].[Pt+2].[Ru+2].c1ccc(-c2nc3ccccc3nc2-c2ccccn2)nc1.c1cnc2c(c1)ccc1cccnc12.c1cnc2c(c1)ccc1cccnc12 | Danio rerio |  | embryos | 30 µM, 96 h |  | hatching rate | 50 ± 5.4%
O=[N+]([O-])c1ccc(N2CCC(NCCC(O)c3ccc(F)c4ccccc34)CC2)c(C(F)(F)F)c1 (stereo not drawn) | Salmonella typhimurium | SOS/umu test | TA1535/pSK1002 | 0.016 mg/mL, 4 h, without S9, full range |  | survival | 58.1%
[Cl-].[Cl-].[Pt+2].[Ru+2].c1ccc(-c2nccnc2-c2ccccn2)nc1.c1cnc2c(c1)ccc1cccnc12.c1cnc2c(c1)ccc1cccnc12 | Danio rerio |  | embryos | 90 µM, 48 h |  | survival rate | 36.7 ± 3.2%
CCOC(=O)C1=C(CN2CCC[C@H]2C(=O)Nc2ccc(B(O)O)cc2)NC(c2nccs2)=N[C@H]1c1ccc(F)cc1Br | hepatitis B virus |  | HepDES19 |  | baseline: CC50 over EC50 | selectivity index | 32
CNC(=O)c1c(N(C)N=O)ncn1C | Salmonella typhimurium | plate incorporation | TA1535, water | 50 µg/plate, without S9 |  | revertant colonies per plate | 30 ± 5
Cc1cc(C(=O)NC(C)(C)COc2cccc3c2C(N)=NS(=O)(=O)N3)cc(C)n1 | Escherichia coli | Ames test, confirmatory | WP2 uvrA | 100 µg/plate, together with: rat liver S9 | baseline: solvent control | revertant ratio | 1.2
CCOC(=O)C1=C(CN2CCC(C(=O)Nc3ccccc3B(O)O)C2)NC(c2nccs2)=NC1c1ccc(F)cc1Br (stereo not drawn) | hepatitis B virus |  | HepDES19 |  | baseline: CC50 over EC50 | selectivity index | > 25
CC(C)(C)NCc1ccc(Nc2ccnc3cc(Cl)ccc23)cc1O | Vero-E6 | CellTiter-Glo ATP |  | concentration not given, 72 h, retest 8-point duplicates | baseline: DMSO 0%, hyamine -100%, more negative, more toxic | cytotoxicity efficacy | -29.5%
COc1cccc(-c2n[nH]c(SCc3ccccn3)n2)c1OC | Salmonella typhimurium | Ames test, plate incorporation | TA100 | 1.0 mg/plate, without S9 |  | revertant colonies per plate | 105
CCOC(=O)C1=C(CN2CCC[C@@H]2C(=O)Nc2cccc(B(O)O)c2)NC(c2nccs2)=N[C@H]1c1ccc(F)cc1Br | hepatitis B virus |  | HepDES19 |  | baseline: CC50 over EC50 | selectivity index | 255
Fc1ccc(C2=CCNCC2)cc1 | Salmonella typhimurium | SOS/umu test | TA1535/pSK1002 | 0.002 mg/mL, 4 h, with S9, full range |  | survival | 103%

A few entries again:
SMILES | target or system | test | test system | setting | scale | measurement | result
[Cl-].[Cl-].[Pt+2].[Ru+2].c1ccc(-c2nc3ccccc3nc2-c2ccccn2)nc1.c1cnc2c(c1)ccc1cccnc12.c1cnc2c(c1)ccc1cccnc12 | Danio rerio |  | embryos | 30 µM, 96 h |  | hatching rate | 50 ± 5.4%
